Measured values pooled from the literature.
Parts stem from different laboratories: compare values within a part only.

Sample 1
Target: Histone acetyltransferase KAT6A, both winged helices, GST fusion (KAT6A, Homo sapiens, UniProt Q92794, residues 1-181)
Technique: protein binding microarray
Molecule type: double-stranded DNA, one strand shown
Sample: in vitro
Concentration: not given
Setting: 8-mer, flanks averaged, mean of 2 arrays, mostly near background
Reference: not given
Reading: higher = stronger binding
Target sequence (chain): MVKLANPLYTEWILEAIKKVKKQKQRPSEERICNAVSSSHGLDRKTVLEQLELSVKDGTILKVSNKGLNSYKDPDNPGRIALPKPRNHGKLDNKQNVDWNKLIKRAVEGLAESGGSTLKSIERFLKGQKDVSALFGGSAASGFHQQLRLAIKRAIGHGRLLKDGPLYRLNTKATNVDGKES
Strand | E-score
ATCGCATC | 0.0795
CGCTTGCA | 0.122
AGGAGACC | -0.0865
GAGGTTGA | -0.19
ACGAGGTA | -0.00549
AAACCGGA | 0.0242
CGAGCGAG | 0.0737
CCGGGCCG | 0.305
AAGCTCAG | -0.194
CAAGACCC | -0.0803
ATCACCTG | -0.151
ATACTCCA | -0.158
AGAACGGC | 0.126
GAACACGA | -0.0713
ATGATACG | 0.0226
ATTCCAAT | 0.00679
TAGCAATA | -0.0929
GGCAAATA | 0.0497
CTGTTGTC | -0.0469
CGTCTGCC | 0.137

Sample 2
Target: RING finger protein unkempt homolog, zinc fingers 1-6, GST-SBP tag (UNK, Homo sapiens, UniProt Q9C0B0, residues 30-357)
Chain of UniProt Q9C0B0 (30-357, looked up): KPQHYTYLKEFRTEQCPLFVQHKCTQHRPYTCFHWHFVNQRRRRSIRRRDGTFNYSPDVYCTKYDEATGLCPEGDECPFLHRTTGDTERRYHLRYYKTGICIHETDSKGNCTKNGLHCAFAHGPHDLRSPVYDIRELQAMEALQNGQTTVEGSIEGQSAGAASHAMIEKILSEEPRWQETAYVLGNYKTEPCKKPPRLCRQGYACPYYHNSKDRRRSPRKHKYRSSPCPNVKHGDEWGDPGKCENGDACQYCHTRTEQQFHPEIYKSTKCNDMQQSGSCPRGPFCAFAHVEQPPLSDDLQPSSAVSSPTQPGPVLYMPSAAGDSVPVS
Technique: RNA Bind-n-Seq
Molecule type: RNA
Sample: in vitro
Concentration: not given
Setting: RNA with constant flanks, human and mouse sites, ends assumed
Reference: input RNA pool
Reading: higher = stronger binding
Constant ends, left off below: GGGAGUUCUACAGUCCGACGAUC … CAACAGAGGAUUGAGCAUCA
Strand | bound/input enrichment
AAACUCAAACAGACGUUGACUUUCUUUGAUGAGCUUCAUAAUGUUGGCAGAGAUCAUGGGACUAGUGAUUUUAGGGAGAGUUUAGUAUCCCUGGUUCAGAACUCCAGAAAACUACAGAAC | 0.198 ratio
GAAUAUAUGAUGGACACCGUAAUUUCCCUUUUGACUGGUUUGUCAGACUCCCAAGUCAGAGCUUUUAGGCAUACAAGUACCCUUGCUGCAAUGAAGCUGAUGACUGCUCUGGUGAAUGUU | 0.613 ratio
GAUCUGCAGGCGUAUCUCACAGACUUCCUUUGCCAGUUUGCUCAGCAGCCCUGUUACAUAAUGUUUUCAUGCCACCUUAACGACAACGAGAGGCGGGUCCUACAGACUAUCGGCAUCUAA | 0.114 ratio
UUUUCAAAAUGUAAAAAAGCCUUUCGUGAAGGAUCUAGGAAAUCAUCAAGGGUUAAGGGUUCAGCACCAGAAAUUGAUCCUUCAUCUGAUAGUUCAAAUUUUGUUUGGGAAACAAAAAUC | 0.448 ratio
UGGUCGAUAUUCCUGGGAAUGGGGACCUUACUCUGGGGCCAGCUUAUUUCAACCAUUCCAACCAGCCGCUUAAAGUUUCUAAAAGAAGCUGGUCAUGGAACCCAGAAGGAGGAGAUACCU | 0.274 ratio
AAUUUAUUAACUGUUGUAUAAAAGCAGAGAAAAAGGACACACCAUGUCCGAUGAAAUCUUCAGCACAACUUUGGCGUACACCAAGAGUCCAAAGGCUACCAAGAGAACUUCCUUUCAGGA | 0.195 ratio
AUAGAUGCCCUCGCUUCCUCCCUGUUUCCCGAUUCCUUCUGCCCCCACCCCCAGAUCUCCUAGUAGGUCACCCAGACCCGUCUGCACCCCACUUGCGAAUCUGCAGCCACAAAUCCUCUG | 0.44 ratio
GCUUGGAUUUUGAAAUUUACUGUAACUGUCAGUGUACACGUCUGGACCCCGUUUCAUUUUUACACCAAUUUGGUAAAAAUGCUGCUCUCAGCCUCCCACAAUUAAACCGCAUGUGAUCUC | 0.331 ratio

Sample 3
Target: Sal-like protein 4, full length isoform A (SALL4, Homo sapiens, UniProt Q9UJQ4, residues 1-1053)
Chain of UniProt Q9UJQ4 (whole entry, looked up): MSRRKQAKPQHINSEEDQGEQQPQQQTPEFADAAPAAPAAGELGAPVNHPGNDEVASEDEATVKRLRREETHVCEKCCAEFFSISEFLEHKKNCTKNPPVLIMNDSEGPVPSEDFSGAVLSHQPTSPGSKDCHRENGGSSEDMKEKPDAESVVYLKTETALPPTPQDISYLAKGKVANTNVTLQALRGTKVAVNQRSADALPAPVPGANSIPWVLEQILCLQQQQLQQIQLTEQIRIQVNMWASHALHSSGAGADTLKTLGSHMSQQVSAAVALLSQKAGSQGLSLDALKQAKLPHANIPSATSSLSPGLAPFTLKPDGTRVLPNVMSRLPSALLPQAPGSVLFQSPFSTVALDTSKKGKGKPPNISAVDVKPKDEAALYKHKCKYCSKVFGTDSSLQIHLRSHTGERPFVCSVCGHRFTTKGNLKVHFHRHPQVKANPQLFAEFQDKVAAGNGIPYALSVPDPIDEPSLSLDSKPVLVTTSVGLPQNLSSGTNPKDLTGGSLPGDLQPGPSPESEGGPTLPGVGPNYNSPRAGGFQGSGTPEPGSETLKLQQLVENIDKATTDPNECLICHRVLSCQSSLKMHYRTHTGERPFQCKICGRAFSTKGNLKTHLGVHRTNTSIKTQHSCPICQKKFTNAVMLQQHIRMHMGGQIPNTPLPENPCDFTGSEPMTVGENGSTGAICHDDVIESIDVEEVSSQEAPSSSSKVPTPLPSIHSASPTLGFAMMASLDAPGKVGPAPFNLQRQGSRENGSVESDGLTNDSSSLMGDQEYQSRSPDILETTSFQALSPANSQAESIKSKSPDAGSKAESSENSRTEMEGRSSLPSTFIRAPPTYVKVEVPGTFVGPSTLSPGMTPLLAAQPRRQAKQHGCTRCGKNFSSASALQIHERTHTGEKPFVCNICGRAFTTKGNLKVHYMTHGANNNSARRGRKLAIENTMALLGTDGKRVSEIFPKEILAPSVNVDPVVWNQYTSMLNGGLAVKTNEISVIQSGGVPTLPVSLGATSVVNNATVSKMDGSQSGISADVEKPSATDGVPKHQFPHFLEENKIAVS
Technique: universal PBM
Molecule type: double-stranded DNA, one strand shown
Sample: in vitro
Concentration: 600 nM
Setting: 8-mer, flanks averaged, mean of replicates
Reading: higher = stronger binding
Strand | E-score
AGCGCCCT | -0.279
CTCCGCCC | -0.254
ATCGTTAG | 0.118
TAGTGTCA | 0.13
CTTTGAGC | -0.237
CATTATTA | 0.39
AACCTGTA | 0.135
ACTGTTAG | 0.0196
CAAACAGA | 0.0135
CGATCGGA | -0.182
TATTAGAA | 0.345
AGTAGCGG | -0.15
ATATGCTC | 0.144
ATCGGGGC | -0.27
TAACAGGA | 0.149
GCTATTGA | 0.0778
ACCGTGCT | -0.243
GTACAAAA | 0.253
CGTACGGA | -0.0887

Sample 4
Target: RNA binding protein fox-1 homolog 2, RRM domain, GST-SBP tag (RBFOX2, Homo sapiens, UniProt O43251-10, residues 100-194)
Technique: RNA Bind-n-Seq
Molecule type: RNA
Sample: in vitro
Concentration: 365 nM
Setting: natural RNA segment, single round, ends assumed
Reference: no-protein control
Reading: higher = stronger binding
Constant ends, left off below: GGGAGUUCUACAGUCCGACGAUC … UGGAAUUCUCGGGUGCCAA
Target sequence (chain): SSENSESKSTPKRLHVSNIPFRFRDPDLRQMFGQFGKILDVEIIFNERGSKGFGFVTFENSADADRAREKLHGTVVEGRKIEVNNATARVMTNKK
Strand | RBNS enrichment (R)
CAUAAUGUGUUGUGAAAAUUUAAUCUUAAAAAUUAAAUUUUUAAACUAUGUGGGUCUGUGAAUUUCUUUAAUGUCUAAGAAAUCCAGCUUCAUAAUUUCCAUGAUACAAA | 0.683
AGAUGGCUUUGGGUGUCUGGUACCACUCCUUCCCUUCCCCCUACCUGGCCGAUUGGUGCUCCUUCUACACUCAUACCUCUACCUCUCACUGGGGCCAGCAGGAGUUGGGA | 0.624
CAGUUAUUAAAAUGUUUUGCUAAGAAUUAAAAAUCUUAAACAAACCCGUAAGUGCCACUAGGAAGGAAACCUCAAAUCCACCUACACUGAACCCAGGAACAUCUACAGCA | 0.733
AUGUUCAUGCCAAAAACAAAUUGUCCCCAAGCCUAUAUGUAUUAAAAUGUUAACUUUGCCUAAAAAUAUUGCAGUGACUUUUUAGGCAGGAGUGCCAAAGGACACUAUGA | 1.16
UCUGAUUUCAGAUGUAGUCAUUCCAGAACCUUCUCUUUAUGAGUUCACCUGCUAGUACAAUCUCCACAACUUGAAUGGCAUUGGUUGUUCUGUAAUUCCUGCCAAAAGCA | 0.437
UUCGUUUUUUUAACUGUUCAUUCCUUUGUGCAGAGUGUAUAUCUCUGCCUGGGCAAGAGUGUGGAGGUGCCGAGGUGUCUUCAUUCUCUCGCACAUUUCCACAGCACCUG | 0.186
UAAACUGCACUGAGUCUCUUGCCAAGAAGCAAUGCUUUUUUUGUGAAGGCCACUCAGAGCAUCUUGCAGUCACAGCUGUUCCUGAGCCUGAGGCCAGAAGAUUCCCUAAC | 0.244
GUAUAGAAGUCUUCAUGAAAUGCUAUGUCAUUUCAUGUCCUGUGUCAGUUUAUGUUUUGGUCCACUUUUCCAGUAUUUUAGUGGACCCUGAAAUGUGUGUGAUGUGACAU | 0.538
